Published values collected from several papers.
Compare with care: the assays were run in different laboratories. “And” joins repeats or separate records; there may be more than shown. Numbers after ± are the reported error.
USP14: Ubiquitin carboxyl-terminal hydrolase 14 (USP14, Homo sapiens, UniProt P54578)
SLC6A9: Sodium- and chloride-dependent glycine transporter 1 (SLC6A9, Homo sapiens, UniProt P48067)
PPO3: PPO3 (Agaricus bisporus, UniProt C7FF04)
Gria2/Glutamate receptor 3: Gria2/Glutamate receptor 3 (Rattus norvegicus, UniProt P19491+P19492)

Structure (SMILES)	target	assay	test system	setting	how to read	measurement	result
C#CCCCCNC(=O)c1ccc(N(C(=O)C=C)c2ccc(Br)cc2)cc1	3-ketoacyl-CoA thiolase, mitochondrial (Homo sapiens, UniProt P42765)	mass spectrometry profiling	H460 cell lysate	100 µM over 10 µM, UniProt P42765	relative to: high over low concentration	reactivity ratio	3.86
CCCCOc1ccc(C(=O)OCCN2CC=CCC2)cc1	Muscarinic acetylcholine receptor M1 (CHRM1, Homo sapiens, UniProt P11229)		membranes	1 µM, 15 h, with: carbachol	relative to: control	Emax	1.76 ± 0.06 fold
N#CN1CC[C@H](C(=O)Nc2nc3c(s2)CN(C(=O)Cn2cc(CNC(=O)CCCC[C@@H]4SC[C@@H]5NC(=O)N[C@@H]54)nn2)CC3)C1	Ubiquitin carboxyl-terminal hydrolase isozyme L3 (UCHL3, Homo sapiens, UniProt P15374)	probe binding, affinity probe, neutravidin pull-down LC-MS/MS	HEK293T, cell lysate	5 µM, 1 h, single replicate, unit not given	higher = more pulled down	iBAQ abundance	2.5e+07 and 1.36e+07 and 6.62e+06
Cc1ccc(-c2c(/C=C(\C#N)C(=O)NC(C)C)n(CCCO)c3ncnc(N)c23)cc1	Tyrosine-protein kinase ABL1, phosphorylated (ABL1, Homo sapiens, UniProt P00519, E255K)	binding, competition with immobilised ligand		1 µM		remaining binding	98%
CC(C)Oc1cc(Cl)ccc1CNc1cc(-c2ccccc2)nc2ncnn12	G-protein coupled receptor 3 (GPR3, Homo sapiens, UniProt P46089, I200W)	cAMP GloSensor	human cells	30 µM	higher is more cAMP	cAMP luminescence	21000 a.u. and 15700 a.u. and 17600 a.u. and 18900 a.u.
CCCCCCCO[C@H]1[C@H](OC)O[C@H](CO)[C@@H](O)[C@H](O)[C@@H]1O	Type 1 fimbrin D-mannose specific adhesin, lectin domain (fimH, Escherichia coli K-12, UniProt P08191)	binding, isothermal titration calorimetry		25 °C		ΔH	-6.6 kcal/mol and -6.76 kcal/mol
CC1=CC(=O)C(N(C)C2CCS(=O)(=O)C2)=CC1=O (centres unmarked)	USP14	enzyme activity, inhibitor		17 µM		inhibition	87%
CC(/C=C/C(=O)NO)=C\[C@@H](C)C(=O)c1ccc(N(C)C)cc1	Histone deacetylase 8 (HDAC8, Homo sapiens, UniProt Q9BY41)	ITC	Tris-HCl buffer	concentration not given, 283 K		binding stoichiometry	0.9
CCOC(=O)C1CCCN(CCOC(c2ccc(OC)cc2)(c2ccc(OC)cc2)c2ccc(S(=O)(=O)N(C)C)cc2)C1 (centres unmarked)	SLC6A9	cell-free assay		1 µM		remaining signal	100%
Oc1cc(O)c2cc(O[C@@H]3OC[C@H](O)[C@H](O)[C@H]3O)c(-c3ccc(O)c(O)c3)[o+]c2c1	PPO3	fluorescence quenching		298 K		binding free energy ΔG	-6.312 ± 0.0143 kcal/mol
CC[C@H](C)[C@H](NC(C)=O)C(=O)N[C@@H](Cc1ccc(O)cc1)C(=O)N[C@@H](CC(C)C)C(=O)N[C@@H](CS)C(=O)NCC(=O)N[C@@H](C)C(=O)N[C@H](C(=O)N[C@@H](CO)C(=O)N[C@@H](CC(C)C)C(=O)N[C@@H](Cc1c[nH]cn1)C(=O)N1CCC[C@H]1C(=O)N[C@@H](CCCCN)C(=O)N[C@@H](C)C(=O)N[C@@H](CCCCN)C(=O)N[C@H](C(=O)N[C@@H](CCC(=O)O)C(=O)N[C@@H](CCC(=O)O)C(=O)N[C@@H](CO)C(=O)N1CCC[C@H]1C(=O)NCC(=O)N[C@@H](C)C(N)=O)[C@@H](C)CC)[C@@H](C)CC	Programmed cell death 1 ligand 1 (Cd274, Mus musculus, UniProt Q9EP73)	AFM force spectroscopy	PBS	pH 7.4		dissociation rate constant	0.011 s⁻¹
CCCCCC(O)/C=C/C=O (centres unmarked)	DNA polymerase epsilon subunit 3 (Homo sapiens, UniProt Q9NRF9)	competitive isoTOP-ABPP, measured: POLE3 cysteine peptide	Ramos soluble proteome	100 µM, with: iodoacetamide probe	relative to: DMSO over compound-treated, higher = stronger cysteine blockade	isoTOP-ABPP competition ratio	1.3
Cc1cc(NC(=O)c2cccc(N)c2)ccc1Nc1nccc(-c2cccnc2)n1	Mitogen-activated protein kinase 9 (MAPK9, Homo sapiens, UniProt P45984)	enzyme activity, inhibitor		400 µM, unit not given	relative to: vehicle	remaining activity	0.00103
Cn1cc(-c2cc(N3CCCCS3(=O)=O)ccc2N[C@H]2CC[C@H](C)CC2)c2cc[nH]c2c1=O (stereo in doubt)	Histone acetyltransferase p300 (EP300, Homo sapiens, UniProt Q09472)	binding, competition with immobilised ligand		1 µM		remaining binding	16%
Brc1cccc(-c2cc(CN3c4ccccc4C=Cc4ccccc43)on2)c1	PPO3	enzyme activity, inhibitor		concentration not given		apparent Vmax	34.1 µmol/min
Cc1ncc2[nH]c(=O)n(-c3cnc(Oc4cccc5c4C(C)(C)CO5)c(Cl)c3C)c2n1	Voltage-gated potassium channel KCNC1 (KCNC1, Homo sapiens, UniProt P48547)	potassium current, activator, automated patch clamp	HEK293 expressing Kv3.1	1.25 µM, test pulse -15 mV		maximum potentiation	205%
CC(=O)C12NC(C)(C)CC1(C)C(=O)C1=C2c2c(c3c4n2C(C)(C)CC2=C4C4(CC(C)(C)NC(C)(C4)C2=O)CC3(C)C)C(=O)C(C)(C)N1 (single isomer, unassigned; (-))	Neuronal acetylcholine receptor; alpha3/beta4 (Homo sapiens, UniProt P30926+P32297)	ion current, agonist, whole-cell patch clamp	HEK293T	10 µM		activation	0.58%
COc1ccc(C(OCCN2CCCC(C(=O)O)C2)(c2ccc(CN3CCCC3=O)cc2)c2ccc(OC)cc2)cc1 (centres unmarked)	SLC6A9	cell-free assay		1 µM		remaining signal	57%

Structure (SMILES)	target	assay	test system	setting	how to read	measurement	result
O=C(N1CCCC1)n1cc(-c2ccc(-c3ccccc3)cc2)nn1	Protein ABHD13 (Abhd13, Mus musculus, UniProt Q80UX8)	probe labelling, inhibitor, competitive ABPP-SILAC, measured: Abhd13	mouse T cells	concentration not given, 4 h, protein level	relative to: treated over DMSO cells, lower = stronger inhibition	SILAC activity ratio	1.19
O=C(O)Cc1cc2c(cc1C(=O)c1cccc(Br)c1)OCO2	Gria2/Glutamate receptor 3	whole-cell patch clamp	HEK-293T	concentration not given, with: glutamate		desensitization time constant	1.1 ± 0.2 ms
Cc1nn(-c2ccccc2)c2c1CC1(C(=O)NC(=O)c3ccccc31)C1CCCN21 (centres unmarked)	USP14	enzyme activity, inhibitor		17 µM		inhibition	6%
O=C1c2sc(-c3ccc(N4CCC(F)C4)nc3F)nc2CCN1c1cccnc1 (centres unmarked)	TAR DNA-binding protein 43, aggregated (TARDBP, Homo sapiens, UniProt Q13148)	binding, surface plasmon resonance	brain-derived TDP-43 aggregates	1.17 nM		SPR response	0.573 RU
O=C(NN=C1c2ccccc2-c2nc3nonc3nc21)c1ccccc1O	USP14	enzyme activity, inhibitor		17 µM		inhibition	54%
CCCCCC=CC=C1C(=O)C=CC1CC=CCCCC(=O)O (centres unmarked)	Outer kinetochore KNL1 complex subunit ZWINT (ZWINT, Homo sapiens, UniProt O95229)	competitive isoTOP-ABPP, measured: ZWINT cysteine peptide	Ramos soluble proteome	100 µM, with: iodoacetamide probe	relative to: DMSO over compound-treated, higher = stronger cysteine blockade	isoTOP-ABPP competition ratio	3
CC(C)[C@@H]1NC(=O)[C@H](Cc2ccccc2)NC(=O)CSC[C@@H](C(N)=O)NC(=O)[C@H](CCC(=O)O)NC(=O)[C@H](CO)NC(=O)[C@H](Cc2c[nH]c3cccc(Cl)c23)NC(=O)[C@H](C2CCCCC2)NC(=O)[C@H](C(C)C)NC(=O)[C@H](Cc2ccc(O)cc2)NC(=O)[C@H](CC(=O)O)NC(=O)[C@H](Cc2c[nH]c3ccccc23)NC(=O)[C@H](Cc2ccc(N)nc2)NC(=O)[C@H](Cc2c[nH]c3ccc(Cl)cc23)NC(=O)[C@H](CCC(=O)O)NC1=O	Interleukin-1 receptor-like 2 (IL1RL2, Homo sapiens, UniProt Q9HB29)	reporter gene (SEAP), inhibitor, HEK-Blue IL-36R reporter	HEK-Blue IL-36R cells	33.33 µM, 6 h, with: IL-36β 30 ng/mL		remaining activity	91%
CCCCCCCCCCCCCCCC(=O)NCCCC[C@H](NC(=O)[C@H](CCC(=O)O)NC(=O)[C@H](Cc1ccc(O)cc1)NC(=O)[C@H](CCC(=O)O)NC(=O)COCC(=O)NCCCOCCOCCOCCCNC(=O)[C@H](Cc1c[nH]c2ccccc12)NC(=O)[C@H](CCCCN)NC(=O)[C@H](C)NC(=O)[C@H](CCCCNC(=N)N)NC(=O)[C@H](CCC(N)=O)NC(=O)[C@H](Cc1c[nH]cn1)NC(=O)[C@H](CCSC)NC(=O)[C@H](CC(C)C)NC(=O)[C@H](CCC(N)=O)NC(=O)[C@@H](NC(=O)[C@H](CCC(=O)O)NC(=O)C(C)(C)NC(=O)[C@@H](NC(=O)C(C)(C)N)C(C)C)[C@@H](C)CC)C(=O)N[C@@H](CCC(=O)O)C(=O)N[C@@H](Cc1ccc(O)cc1)C(=O)N[C@@H](CCC(=O)O)C(N)=O	Parathyroid hormone/parathyroid hormone-related peptide receptor (PTH1R, Homo sapiens, UniProt Q03431)	agonist	Saos-2 with cAMP reporter	31.6 nM, 90 min, washout after 30 min ligand	higher = more cAMP	cAMP luminescence AUC	2570 a.u.
O=C1CC(=O)c2ccc3c4c(ccc1c24)C(=O)CC3=O	USP14	enzyme activity, inhibitor		17 µM		inhibition	77%
Fc1ccc(Nc2nc(NC3CCCCC3)c3cc(C(F)(F)F)ccc3n2)cc1F	Beta-2 adrenergic receptor (ADRB2, Homo sapiens, UniProt P07550)	β-arrestin2 recruitment, PathHunter and GloSensor			relative to: GloSensor IC50 over PathHunter IC50	bias factor	> 500 fold
c1ccc(OC[C@H]2CN(CCN3CCc4ccccc43)CCO2)nc1	5-hydroxytryptamine receptor 2B (HTR2B, Homo sapiens, UniProt P41595)	calcium mobilization, FLIPR				Hill slope	1.5 ± 0.51
Cc1cc(C)cc(COc2cc3c(cc2OCc2cc(C)cc(C)c2)C2CC(O)(Cc4cn(CCOCCOCCNC(=O)CCCCC5SCC6NC(=O)NC65)nn4)CC(C)N2CC3)c1 (centres unmarked)	T-complex protein 1 subunit gamma (Homo sapiens, UniProt P49368)	biotinylated probe pull-down, measured: CCT3		10 µM probe	relative to: heavy over light	SILAC ratio	1.62
CCCC[C@H](NC(=O)[C@H](CCC(N)=O)NC(=O)[C@H](CCC(=O)O)NC(=O)[C@@H]1CCCN1C(=O)[C@@H](NC(=O)[C@H](C)NC(=O)[C@H](CC(N)=O)NC(=O)[C@H](CC(=O)O)NC(=O)CNC(=O)[C@@H]1CCCN1C(=O)[C@H](Cc1ccc(O)cc1)NC(=O)[C@@H](NC(=O)[C@@H]1CCCN1C(=O)[C@H](CCC(=O)O)NC(=O)[C@H](CC(C)C)NC(=O)[C@@H]1CCCN1C(=O)[C@H](C)N)C(C)C)[C@@H](C)O)C(=O)N[C@@H](C)C(=O)N[C@@H](CCC(N)=O)C(=O)N[C@@H](Cc1ccc(O)cc1)C(=O)N[C@@H](C)C(=O)N[C@@H](CCCCNC(=O)c1ccc2c(c1)C(=O)OC21c2ccc(N(C)C)cc2Oc2cc(N(C)C)ccc21)C(=O)N[C@@H](CC(=O)O)C(=O)N[C@@H](CC(C)C)C(=O)N[C@@H](CCCNC(=N)N)C(=O)N[C@@H](CCCNC(=N)N)C(=O)N[C@@H](Cc1ccc(O)cc1)C(=O)N[C@H](C(=O)N[C@@H](CC(N)=O)C(=O)N[C@@H](CCCC)C(=O)N[C@@H](CC(C)C)C(=O)N[C@H](C(=O)N[C@@H](CCCNC(=N)N)C(=O)N1CCC[C@H]1C(=O)N[C@@H](CCCNC(=N)N)C(=O)N[C@@H](Cc1ccc(O)cc1)C(N)=O)[C@@H](C)O)[C@@H](C)CC	Neuropeptide Y receptor type 4 (NPY4R, Homo sapiens, UniProt P50391, T98A)	NanoBRET binding		Nluc-tagged receptor T98A, unit not given	net BRET ratio	BRETmax	0.045 ± 0.0014
C#CCN1CCN(c2nc(N3CCN(c4ccc(Cc5cc(CNC(=O)[C@@H]6C[C@@H](O)CN6C(=O)[C@@H](NC(=O)C6(F)CC6)C(C)(C)C)c(O)cc5-c5scnc5C)cc4)CC3)nc(N3CCN(C(=O)C4CC4)C3)n2)CC1=O	VHL/BRD9, with Elongin B/C (Homo sapiens, UniProt P40337+Q9H8M2)	native mass spectrometry		5 µM, with: BRD9 and VCB at 5 µM	relative to: unbound BRD9	ternary complex formation	0%
COC(=O)Cc1cc2c(cc1C(=O)c1ccccc1I)OCO2	Gria2/Glutamate receptor 3	glutamate-evoked current, whole-cell patch clamp	HEK-293T	concentration not given, weighted tau, 500 ms pulse, with: glutamate		desensitization time constant	2.5 ± 0.2 ms
OC1CCCCC1N1CCC(c2ccc(Br)cc2)CC1 (racemic)	Sigma non-opioid intracellular receptor 1 (SIGMAR1, Homo sapiens, UniProt Q99720)		rat liver (sigma2), human sigma1		relative to: Ki sigma2 over Ki sigma1	selectivity ratio	2.7
N[C@H]1CC[C@H](Nc2nccc(-c3cccnc3Oc3ccc(NC(=O)NC4CC4)c4ccccc34)n2)CC1	Multifunctional protein CAD (CAD, Homo sapiens, UniProt P27708)	kinobead competition pulldown	HEK293/HCT116 lysate mixture	10 µM, 1 h, 4 °C	lower = stronger competition	log2 LFQ intensity	21.6 and 21.4 and 22 and 19.3

For quick reference, copied from above:
Structure (SMILES)	target	assay	test system	setting	how to read	measurement	result
Brc1cccc(-c2cc(CN3c4ccccc4C=Cc4ccccc43)on2)c1	PPO3	enzyme activity, inhibitor		concentration not given		apparent Vmax	34.1 µmol/min
Cc1ncc2[nH]c(=O)n(-c3cnc(Oc4cccc5c4C(C)(C)CO5)c(Cl)c3C)c2n1	Voltage-gated potassium channel KCNC1 (KCNC1, Homo sapiens, UniProt P48547)	potassium current, activator, automated patch clamp	HEK293 expressing Kv3.1	1.25 µM, test pulse -15 mV		maximum potentiation	205%
CC(=O)C12NC(C)(C)CC1(C)C(=O)C1=C2c2c(c3c4n2C(C)(C)CC2=C4C4(CC(C)(C)NC(C)(C4)C2=O)CC3(C)C)C(=O)C(C)(C)N1 (single isomer, unassigned; (-))	Neuronal acetylcholine receptor; alpha3/beta4 (Homo sapiens, UniProt P30926+P32297)	ion current, agonist, whole-cell patch clamp	HEK293T	10 µM		activation	0.58%
